Results of several laboratories.
Parts stem from different laboratories: compare values within a part only. Changes are numbered by the printed parent chain.

Series 1
Target: Sal-like protein 4, full length isoform A (SALL4, Homo sapiens, UniProt Q9UJQ4, residues 1-1053)
Chain of UniProt Q9UJQ4 (whole entry, looked up): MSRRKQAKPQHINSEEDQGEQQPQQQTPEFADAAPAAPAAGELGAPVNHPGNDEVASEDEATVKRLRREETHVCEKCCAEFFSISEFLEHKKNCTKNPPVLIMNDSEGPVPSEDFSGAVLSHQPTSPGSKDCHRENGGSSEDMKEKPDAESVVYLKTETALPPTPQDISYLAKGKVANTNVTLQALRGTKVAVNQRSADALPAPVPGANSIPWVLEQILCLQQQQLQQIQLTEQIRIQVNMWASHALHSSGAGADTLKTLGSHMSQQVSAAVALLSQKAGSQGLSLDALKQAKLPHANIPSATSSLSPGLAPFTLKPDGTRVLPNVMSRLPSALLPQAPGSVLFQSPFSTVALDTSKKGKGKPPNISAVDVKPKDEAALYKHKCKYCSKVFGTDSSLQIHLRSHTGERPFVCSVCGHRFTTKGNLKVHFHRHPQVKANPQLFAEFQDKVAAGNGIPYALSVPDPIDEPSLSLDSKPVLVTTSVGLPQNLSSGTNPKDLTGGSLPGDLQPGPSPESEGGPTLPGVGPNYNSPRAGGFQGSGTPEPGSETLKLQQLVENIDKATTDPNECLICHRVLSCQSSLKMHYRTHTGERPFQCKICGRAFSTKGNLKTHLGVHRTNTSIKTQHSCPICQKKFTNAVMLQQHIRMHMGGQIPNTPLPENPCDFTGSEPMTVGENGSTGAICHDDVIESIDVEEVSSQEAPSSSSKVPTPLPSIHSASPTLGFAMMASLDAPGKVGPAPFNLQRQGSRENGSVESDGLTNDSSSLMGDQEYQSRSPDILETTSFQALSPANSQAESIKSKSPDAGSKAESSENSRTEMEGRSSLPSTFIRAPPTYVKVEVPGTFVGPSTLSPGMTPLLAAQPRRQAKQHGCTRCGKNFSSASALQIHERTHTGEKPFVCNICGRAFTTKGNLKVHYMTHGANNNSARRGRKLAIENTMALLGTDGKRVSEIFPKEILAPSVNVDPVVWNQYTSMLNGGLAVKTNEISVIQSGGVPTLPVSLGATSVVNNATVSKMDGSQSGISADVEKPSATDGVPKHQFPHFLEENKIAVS
Technique: universal PBM
Molecule type: double-stranded DNA, one strand shown
Medium: in vitro
Tested at: 600 nM
Setting: 8-mer, flanks averaged, mean of replicates
Direction: higher = stronger binding
Endpoint: E-score
AATGCTCT: 0.0794
GCTGTCAA: -0.199
CCTCTTCC: -0.201
CCCCTTTC: -0.111
GAAGCCCC: -0.256
AGCGCGAG: -0.219
TAATTCGA: 0.263
CCAGTGAG: -0.283
CGGCTTCA: 0.0311
GGAAGCAA: -0.0647
ATGAATGG: 0.143
AGACAGCC: -0.233
AAGATGAT: 0.232

Series 2
Target: Histone acetyltransferase KAT6A, winged helix 1, GST fusion (KAT6A, Homo sapiens, UniProt Q92794, residues 1-85)
Technique: protein binding microarray
Molecule type: double-stranded DNA, one strand shown
Medium: in vitro
Tested at: not given
Setting: 8-mer, flanks averaged, mean of 2 arrays, mostly near background
Baseline: not given
Direction: higher = stronger binding
Endpoint: E-score
Target sequence (chain): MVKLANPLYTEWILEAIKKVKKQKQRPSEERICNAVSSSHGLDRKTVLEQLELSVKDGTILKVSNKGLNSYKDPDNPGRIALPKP
GAGGCCAC: -0.0485
ACGAGATA: -0.235
AGTTTATC: -0.0885
GCCTTTAC: 0.116
GGCGCACA: 0.337
ACCCACCC: -0.0259
CAGTTTGA: -0.216
ATATATCG: -0.0662
AAGCTTCT: -0.172
AAGAGCCC: 0.0249
TAAAAGGA: -0.149
GAAACAGC: -0.17
AACAGATG: -0.288
CTCCCATA: -0.209
CACAACTA: -0.0309
CGGTCTAG: 0.0525
AGGATTAT: -0.174
AGAACTAA: -0.118

Series 3
Target: Ras GTPase-activating protein-binding protein 1, C-terminal RGG region (G3BP1, Homo sapiens, UniProt Q13283)
Chain of UniProt Q13283 (whole entry, looked up): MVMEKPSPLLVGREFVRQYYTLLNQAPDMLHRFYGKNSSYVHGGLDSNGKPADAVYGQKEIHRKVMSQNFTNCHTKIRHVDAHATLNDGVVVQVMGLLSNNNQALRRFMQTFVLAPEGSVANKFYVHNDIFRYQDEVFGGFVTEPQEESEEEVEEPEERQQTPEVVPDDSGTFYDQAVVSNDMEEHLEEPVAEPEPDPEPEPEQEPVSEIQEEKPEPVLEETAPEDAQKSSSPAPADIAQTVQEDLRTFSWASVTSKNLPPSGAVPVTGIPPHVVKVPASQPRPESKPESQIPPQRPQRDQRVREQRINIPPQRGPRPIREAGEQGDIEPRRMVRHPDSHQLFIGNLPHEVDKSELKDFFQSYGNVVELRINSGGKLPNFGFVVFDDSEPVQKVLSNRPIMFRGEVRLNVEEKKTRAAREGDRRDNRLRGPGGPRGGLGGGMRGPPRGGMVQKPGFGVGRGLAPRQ
Technique: RNA Bind-n-Seq
Molecule type: RNA
Medium: in vitro
Tested at: 1 µM
Setting: whole 134-nt RNA, ends assumed
With: 150 mM KCl
Baseline: input library
Direction: higher = stronger binding
Endpoint: log2 enrichment
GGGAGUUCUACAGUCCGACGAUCUCAAGUCCUGUGCUACACAUCGUAUGUACCGAAUCGGGGUUUGGUUUGGUUUGGAAAGUAUUAUGUUACGCCGUUCGGAUCUGCACUUCCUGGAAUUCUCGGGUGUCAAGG: -0.546
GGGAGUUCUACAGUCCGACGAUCGAGAGCGAGGUGGCUUCAAUAAGCCUGGUGGUAAGUUUUUGAGUAUUACCAUAGAUAGUGUUUAAAAAAAAAUGCAGUCAGUUUUUAGAAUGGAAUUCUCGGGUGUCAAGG: -1.35
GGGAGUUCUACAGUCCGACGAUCGGCACCCUUUGAAGGGGAGGAUGAAGAUGAACUCUUCCAAUCCAUCAUGGAACACAACGUAGCCUAUCCCAAGUCUAUGUCCAAGGAAGCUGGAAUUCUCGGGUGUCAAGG: -0.641
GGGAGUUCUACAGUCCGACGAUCAAGUCCUGUGCUACACAUCGUAUGUACCGAAUCGGAAAAAGGUUUUUGGAAAAAGGAAAGUAUUAUGUUACGCCGUUCGGAUCUGCACUUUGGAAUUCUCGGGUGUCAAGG: -2.24
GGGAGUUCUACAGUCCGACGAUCAAGUCCUGUGCUACACAUCGUAUGUACCGAAUCGGGGUUUUGGGGUUUUGGUUUUGGAAAGUAUUAUGUUACGCCGUUCGGAUCUGCACUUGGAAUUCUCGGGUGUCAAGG: -1.12
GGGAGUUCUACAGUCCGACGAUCCACAGACAACACGCACCCACACAGACACAGAGGGAAGGGGUUGGGAUGGGGACAGGGUGCACAGCAGGGCGGGGUAGGACAAAAGCCCCUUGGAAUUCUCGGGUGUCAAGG: -0.265
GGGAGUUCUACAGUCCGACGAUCACCAUGCAGGUGGGCAUCUUUGGGAAGUGGGGCAAGGGGGGGAUAAAAAGGGGGGUAACACUUUGGGAACAGGUGGUCCCAGGUCGUUUCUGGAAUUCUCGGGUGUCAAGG: -0.688

Series 4
Target: CCND2, cyclin fold, Cln2 fusion (human)
Technique: yeast growth competition, sequencing
Medium: yeast
Setting: weak parent motif
Baseline: not given
Direction: higher = stronger binding
Endpoint: normalised enrichment score
Parent: CDKN1A docking peptide (human); SKACRRLFGPVDS; partner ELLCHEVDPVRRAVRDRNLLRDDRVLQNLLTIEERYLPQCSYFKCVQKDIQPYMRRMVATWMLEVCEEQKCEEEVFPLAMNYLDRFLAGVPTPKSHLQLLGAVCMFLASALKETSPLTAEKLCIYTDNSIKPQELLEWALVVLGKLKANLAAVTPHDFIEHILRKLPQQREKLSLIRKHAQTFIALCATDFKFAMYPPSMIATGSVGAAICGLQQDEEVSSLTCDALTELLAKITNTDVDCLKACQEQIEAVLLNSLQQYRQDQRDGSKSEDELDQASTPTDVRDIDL
F8V: 0.128
L7W: 0.334
L7G: -0.285
L7V: 0.254
A3R: -0.259
C4P: 0.163
V11P: 0.169
G9R: 0.471
R5I: 0.341
R6I: 0.257
K2M: 0.5
D12I: 0.143
D12G: 0.392
R6Q: 0.562

Series 5
Target: RING finger protein unkempt homolog, zinc fingers 1-6, SBP tag (UNK, Homo sapiens, UniProt Q9C0B0, residues 30-357)
Chain of UniProt Q9C0B0 (30-357, looked up): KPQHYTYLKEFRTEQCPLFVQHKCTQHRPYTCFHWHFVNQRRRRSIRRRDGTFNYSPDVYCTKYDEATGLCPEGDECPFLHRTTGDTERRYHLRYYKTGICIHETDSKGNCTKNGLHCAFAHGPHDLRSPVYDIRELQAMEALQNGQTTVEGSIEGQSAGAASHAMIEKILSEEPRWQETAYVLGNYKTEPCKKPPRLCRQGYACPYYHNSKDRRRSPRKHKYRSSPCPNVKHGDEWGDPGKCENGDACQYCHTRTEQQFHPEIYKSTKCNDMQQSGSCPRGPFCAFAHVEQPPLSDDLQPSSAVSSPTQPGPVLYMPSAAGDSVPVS
Technique: RNA Bind-n-Seq
Molecule type: RNA
Medium: in vitro
Tested at: 100 nM
Setting: RNA with constant flanks, vertebrate orthologous sites, ends assumed
Baseline: input RNA pool
Direction: higher = stronger binding
Endpoint: bound/input enrichment
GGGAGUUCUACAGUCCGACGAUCUUGGGAACAGCUCUCCAAACAGGAAUAGUAGUAAAAAAAUUAAGCAAAAUGAUAUGUGUAUAGAAAAAACAGAAGUUAAAUCAUGUAAAGUAAAUGCUGCCAACCUUCCUGGUCCUAAAGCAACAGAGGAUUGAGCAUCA: 1.26 ratio
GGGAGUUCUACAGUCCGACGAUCCCAGUCUUCCACUUAGGAUCGGCCUCAAAUCUAUAGAAUUUAUGACAAUUGUGUAUCUACUUAGGUUGACGUUAAUAUUUUUUUAUUAGUCUGUAAAUAAAGAUGGCAUCUUCUAUAUUACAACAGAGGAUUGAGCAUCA: 0.896 ratio
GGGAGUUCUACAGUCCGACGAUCGAACUCUUACAGUCUUAGAUGUUCUAAAAUACAUAAAUAUAUCUGAAUUGUAAGAGUUGUUAGCACAGGUUUUUUGUUUUGUUUUGUUUUUGAAGCACUUGUUUUGGGUACAAGGCAUUUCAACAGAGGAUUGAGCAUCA: 0.438 ratio
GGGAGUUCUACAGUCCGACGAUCCUCACUUCCAGGUUGGACCUAGUGGGAAAGUCAUAGGAAUUGACCACAUUAAAGAGCUAGUAGAUGACUCAAUAAAUAAUGUCAGAAAGGAUGAUCCAAUGCUUUUGUCUUCAGGGAGGGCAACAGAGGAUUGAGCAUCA: 0.801 ratio
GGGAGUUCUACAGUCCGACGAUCUUGGGACCAGCUCUCCAAAUAAGAAUAGUAGUAAAAAAAAUAAGCAAAAUGAUAUUUGUAUAGAAAAAACAGAAGUUAAAUCAUGUAAAAUAAAUGCUGCCAACAUAGCAAGCCCUAGAGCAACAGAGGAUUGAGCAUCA: 2.88 ratio
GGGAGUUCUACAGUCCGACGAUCCCAGUUUUCCAUAUAGGGUUGGCCUCAAAUCUAUAGGAUUUUUGACAAAUGUACCAUAUCUAGUUGUGUUGUUUUACUAUUUUUUUAUUAGCCUGUAAAUAAAGAUGGCAUCUCUCCUAUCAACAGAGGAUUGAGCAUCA: 0.925 ratio
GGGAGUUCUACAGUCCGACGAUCGGUCAUUUAUAGCAAUUAGAGUGGGUUGCCCCUCUACUUCUCCCAAGAAGAAAUCCCAAAUAGAUUCCUUUCAUGUCAGAUUAUACUGUUCUGAUUUUAUUUUCUAUUAUUUUUACAUAUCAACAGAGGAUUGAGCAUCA: 0.675 ratio
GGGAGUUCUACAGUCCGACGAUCGUGUUGUUUGGUACAGGACCUCCUCUGUACUCCUUUGUGGUUAUAAAGCAAUUAGCAAAACGGCUUACAUUUGUAUUUAUUUUCUAUUCCAUACUUUGCCCUGCCUCAUGUUUUUUGUUUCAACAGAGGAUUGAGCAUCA: 0.59 ratio

Series 6
Target: ABI1, truncated, D143A, DHFR fusion (Arabidopsis thaliana)
Technique: DHFR PCA, deep sequencing
Medium: yeast
Setting: methotrexate growth selection, single substitutions
With: (+)-ABA 58 µM
Baseline: wild-type fitted maximum
Direction: higher = stronger binding
Endpoint: relative binding score
Parent: PYL1, truncated, DHFR fusion (Arabidopsis thaliana); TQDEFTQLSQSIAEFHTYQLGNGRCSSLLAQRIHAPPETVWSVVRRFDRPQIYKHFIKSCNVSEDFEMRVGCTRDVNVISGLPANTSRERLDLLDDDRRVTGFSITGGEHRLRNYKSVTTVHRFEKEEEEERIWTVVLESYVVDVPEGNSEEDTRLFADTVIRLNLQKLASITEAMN
F124S: 78.8%
L91T: 3.21%
K58M: 66.7%
D48M: -13.2%
L166Q: 32.2%
Q51F: 45.9%
V137P: -1.8%
I12C: 46.6%
A30Y: 88.3%
Y18N: 76.4%
D153K: -3.96%
T173G: 57%
S59I: 44.7%
E139W: 76.1%
